Measurements collected from several papers.
Every numbered part comes from another study and shows a few of its results, in no order. Positions count from the first letter of the parent shown.

Series 1 — technique: competition protein-binding microarray; form: double-stranded DNA, one strand shown; sample: in vitro; tested at: 2 µM; together with: Cbf1 competitor, 0.05 µM; direction: higher = stronger binding
Target: Phosphate system positive regulatory protein PHO4, full length, GST-tagged (PHO4, Saccharomyces cerevisiae, UniProt P07270, residues 1-312)
Notes: whole 60-bp probe, lowest competitor level
Target sequence (chain): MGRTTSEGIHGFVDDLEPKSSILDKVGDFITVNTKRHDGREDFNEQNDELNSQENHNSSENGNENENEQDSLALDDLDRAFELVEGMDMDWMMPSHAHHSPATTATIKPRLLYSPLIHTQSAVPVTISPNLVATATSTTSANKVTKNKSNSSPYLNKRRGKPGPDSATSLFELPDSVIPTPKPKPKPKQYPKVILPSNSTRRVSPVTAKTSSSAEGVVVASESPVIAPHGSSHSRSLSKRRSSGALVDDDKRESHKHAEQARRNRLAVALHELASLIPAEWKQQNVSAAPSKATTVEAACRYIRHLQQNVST
Sequence | fluorescence intensity [a.u.]
ATACGCCTTTTCGATGGCGTGCTTTTTAATATGTCTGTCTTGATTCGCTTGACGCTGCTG | 7540
TTTCAATTCTATCTTACTTTTCATTGCCATTTTACTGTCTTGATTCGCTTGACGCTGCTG | 3290
TCCACCAGTGGGCCCAGTGTGACGGCCACACTGGACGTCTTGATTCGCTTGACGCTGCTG | 4280
AAATTACTAAGTTGACTAGTGGGTGACGCCGTATGAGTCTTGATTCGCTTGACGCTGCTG | 4170
AAATTACTAAGTTGTCACAACACTTACCCCGTATGAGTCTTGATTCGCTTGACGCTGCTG | 4190
AAGCGCAGGAGGAGCAGCGTGGCGCAACCTTAAGGCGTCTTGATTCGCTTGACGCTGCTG | 5970
AAAGCGGTAATTTTTCACGTGTCGTCAAATATCTATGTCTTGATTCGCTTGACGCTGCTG | 13200
CTAACGAAGGTTTGTCACTTGACTTACAAGCCAAGTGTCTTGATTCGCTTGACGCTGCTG | 3260
CGTCCTAGTGATTTTCACGTGAGTTCCATGAGGAAGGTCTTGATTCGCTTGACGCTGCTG | 10100
CTTCTGTAAATTTGGCTAGTGGGTGGACGCGCCCCGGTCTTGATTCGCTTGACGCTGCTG | 4040
CGTCCTAGTGATTGTACTGTGGGTGCCATGAGGAAGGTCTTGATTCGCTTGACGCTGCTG | 5850

Series 2 — target: CCNE2, cyclin fold, Cln2 fusion (human); technique: yeast growth competition, sequencing; sample: yeast; notes: weak parent motif; baseline: not given; direction: higher = stronger binding
Parent: SAMHD1 docking peptide (human); ASKSRVQLFKDDP
Change | normalised enrichment score
ASKSRVQLFKTDP [D11T] | 0.576
ASKSRVQLFKDVP [D12V] | 0.823
ASKSRVQLFKDTP [D12T] | 0.317
ASKSRVQLNKDDP [F9N] | 0.0588
ASKSRVQLFKEDP [D11E] | 0.153
ASKSRVQVFKDDP [L8V] | 0.00364
ASKSRVQLFKGDP [D11G] | 0.623
ASKSRVQLFIDDP [K10I] | -0.0473
ASKSRVQLEKDDP [F9E] | 0.134
ASKSDVQLFKDDP [R5D] | -0.221
ASKSRVQLFLDDP [K10L] | 0.459
ASWSRVQLFKDDP [K3W] | -0.0339
ASRSRVQLFKDDP [K3R] | 0.0339
ASKDRVQLFKDDP [S4D] | 0.000539
ASKHRVQLFKDDP [S4H] | 0.384
ASKSRVQLFKLDP [D11L] | 0.166
ASKSRVVLFKDDP [Q7V] | 0.3
ASFSRVQLFKDDP [K3F] | 0.0719
ASKSRVQLFNDDP [K10N] | 0.157
ASKSRVQSFKDDP [L8S] | -0.163
ASKSRVQLFRDDP [K10R] | 0.224
ASKSRVQLFKDEP [D12E] | 0.456
ASSSRVQLFKDDP [K3S] | -0.239
ASKSRVQLMKDDP [F9M] | 0.388
ASKSRVQYFKDDP [L8Y] | 0.353

Series 3 — technique: protein binding microarray; form: double-stranded DNA, one strand shown; sample: in vitro; tested at: not given; baseline: not given; direction: higher = stronger binding
Target: Histone acetyltransferase KAT6A, winged helix 2, GST fusion (KAT6A, Homo sapiens, UniProt Q92794, residues 85-181)
Notes: 8-mer, flanks averaged, mean of 2 arrays, mostly near background
Residues (chain): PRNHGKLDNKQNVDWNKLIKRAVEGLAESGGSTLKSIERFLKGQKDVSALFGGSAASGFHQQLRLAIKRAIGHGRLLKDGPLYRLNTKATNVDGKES
Sequence | E-score
AGTGGAGC | 0.0555
AGTTTGAT | 0.0455
AAACGAAA | 0.081
GGTTACAC | -0.147
AGGGCCAC | 0.0655
CAGTGGTA | -0.16
ATTGAATC | -0.151
ACGGCTTC | 0.0321
AGCACTTC | -0.0358
GCTATAAC | -0.171
TACGAGTA | -0.0483
GGCTAGTA | 0.0183
ACCCTCAA | 0.00587
CAAGACCA | -0.0853
AAAGACGC | -0.0485
ATCCCGTC | 0.0233
CGTACAGA | -0.11
CGAAACGA | 0.0262
ATCAAGTC | -0.132
GGATTTCA | 0.078
AGCCGACT | 0.0625
GAAGGGTA | -0.0462
ACCTACAT | -0.197

Series 4 — technique: universal PBM; form: double-stranded DNA, one strand shown; sample: in vitro; tested at: not given; direction: higher = stronger binding
Target: Sal-like protein 4, full length isoform B (SALL4, Homo sapiens, UniProt Q9UJQ4-2, residues 1-616)
Notes: 8-mer, flanks averaged, mean of replicates
Sequence | E-score
GTCTAAGA | -0.136
GTTTGGCA | 0.0163
CGGGGGTC | -0.374
CATGCGAG | -0.0898
CTCTAACA | 0.0555
ACCAGCAC | -0.0431
TAAACAAA | 0.225
CAGATACG | -0.108
GACTTCCC | -0.21
AAGGTTAT | 0.215
GCTGAGAA | -0.194
CATGTTCC | -0.0877
AACGTACC | -0.138
GCCAACTA | -0.0377
CCTCGTGC | -0.15
TGCGCCAA | -0.0134
CGCCCCCA | -0.177
CGAAACAG | -0.146
ATAGAAGA | 0.214
CAACGATG | -0.029
CCATAACA | 0.266
AGATCGTA | -0.00513
